Measurements pooled from the literature.
Compare with care: the assays were run in different laboratories. ± marks the error that the study gave. Where no end group is shown, it is not given here.
UGT1A9: UDP-glucuronosyltransferase 1A9 (UGT1A9, Homo sapiens, UniProt O60656)
SLC10A1: Hepatic sodium/bile acid cotransporter (SLC10A1, Homo sapiens, UniProt Q14973)
Protein farnesyltransferase: Protein farnesyltransferase (Homo sapiens, UniProt P49354+P49356)
GPR17: Uracil nucleotide/cysteinyl leukotriene receptor (GPR17, Homo sapiens, UniProt Q13304)
CXCR4: C-X-C chemokine receptor type 4 (CXCR4, Homo sapiens, UniProt P61073)
Enoyl-[acyl-carrier-protein] reductase [NADPH] FabI: Enoyl-[acyl-carrier-protein] reductase [NADPH] FabI (Staphylococcus aureus, UniProt Q6GI75)
T1: RNA aptamer del U24; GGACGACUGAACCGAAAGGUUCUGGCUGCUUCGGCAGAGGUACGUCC
T2: RNA aptamer minimized 10-24; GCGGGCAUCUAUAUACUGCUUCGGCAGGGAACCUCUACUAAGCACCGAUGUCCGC
B1: side-chain stapled; chain AACSFRINSLCG (also: sidechain bridge or staple (positions not given here))

With O=C(O)[C@H]1O[C@@H](O[C@H]2c3cc4ccc5cccc6c7ccccc7c(c3C=C[C@@H]2O)c4c56)[C@H](O)[C@@H](O)[C@@H]1O (relative stereo) the kcat was 0.48 ± 0.04 min⁻¹ (UGT1A9; glucuronidation, substrate; UGT-expressing HEK293 homogenate; normalized to UGT expression).
For C[C@@H]1CC[C@H]2C(C)(C)[C@H]3C[C@@]12CC[C@@]3(C)O, the fluorescence intensity was 32.3 ± 2.74% (Chilo suppressalis CSP2; binding, competitive fluorescence displacement; 30 µM, pH 7.4).
For COc1ccc2[nH]c([S+]([O-])Cc3ncc(C)c(OC)c3C)nc2c1 (stereo not drawn), the taurocholate uptake was 105 ± 6% (SLC10A1; inhibitor; HEK293 expressing NTCP; 100 µM, 5 min, with: taurocholate 10 µM; baseline: no compound).
`CNPL`: “relative fluorescence increase” 0 (Protein farnesyltransferase; enzyme activity, substrate, fluorimetric; peptide; 3 µM, 30 min, with: 9 µM farnesyl diphosphate; baseline: dansyl-GCVLS (set to 1.0)).
The ΔTm of O=P(O)(O)OC[C@H]1OC(O)(COP(=O)(O)O)[C@@H](O)[C@@H]1O (stereo partly drawn) is reported as 3.33 °C (Pyruvate kinase 1 (Aedes aegypti, UniProt Q16F38); thermal shift; 500 µM, pH 7.5).
With `B1` the selectivity ratio was 13 fold (DPP9 (Homo sapiens, UniProt Q86TI2); enzyme activity; 200 µM, 37 °C; baseline: FAPα over DPP9).
For O=C(CCn1c2ccccc2c2ccncc21)N(c1ccc(F)cc1)c1ccc(F)cc1, “maximum fold increase” read 12 (Proteasome subunit alpha type-2/Proteasome subunit alpha type-6, 20S proteasome (Homo sapiens, UniProt P25787+P60900); proteolysis, activator, fluorogenic peptide; purified 20S proteasome; up to 30 µM, with: Suc-LLVY-AMC, Z-LLE-AMC, Boc-LRR-AMC; baseline: vehicle).
The breakthrough time of CSCCNc1nc(SCCC(F)(F)F)nc2c1ncn2[C@@H]1O[C@H](COP(=O)([O-])OP(=O)([O-])C(Cl)(Cl)P(=O)([O-])[O-])[C@@H](O)[C@H]1O.[Na+].[Na+].[Na+].[Na+] is reported as 24.6 min (GPR17; frontal affinity chromatography-MS; immobilized on IAM column; 1 µM, compound mixture).
For O=c1cc(-c2cccc(O)c2)oc2cc(O)c(O)cc12, the Vmax was 2330 pmol/mg/min (UGT1A9; substrate; pH 7.4, 37 °C).
CN(C)c1ccc2c(-c3ccc(C(=O)O)cc3C(=O)[O-])c3ccc(=[N+](C)C)cc-3oc2c1 gave a Kd of 1170 nM (T1, RNA aptamer del U24; fluorescence quenching titration; pH 7.5, 25 °C, NaCl 15 mM, no Mg2+).
COc1cnc(NS(=O)(=O)c2ccc(NC(=O)/C=C/c3ccc(O)cc3)cc2)nc1 gave a Ka of 48000 L/mol (Albumin (ALB, Homo sapiens, UniProt P02768); tryptophan fluorescence quenching; pH 7.4, 298 K, ALB 1 µM, site I).
CNc1ncnc2c1ncn2[C@@H]1O[C@H](COP(=O)(O)OP(=O)(O)OP(=O)(O)O)[C@@H](O)[C@H]1O.N.N.N.N: “breakthrough time change” 10.6% (Uracil nucleotide/cysteinyl leukotriene receptor, short isoform (GPR17, Homo sapiens, UniProt Q13304, R283I); frontal affinity chromatography-MS; mutated receptor IAM column; concentration not given; baseline: wild type column).
For Cc1cc(O)c2c(c1)C(=O)c1cc(O)cc(O)c1C2=O, the Vmax was 2930 pmol/mg/min (UGT1A9; substrate; pH 7.4, 37 °C).
O=S(=O)(O)C1CCNCC1 gave an Emax of 50.5% (GABA-A receptor; alpha-1/beta-2/gamma-2 (Homo sapiens, UniProt P14867+P18507+P47870); ion current, positive allosteric modulator; Ltk; with: zuranolone 200 nM; baseline: maximal GABA current).
O=C(O)c1ccc(NC(c2ccc3cccnc3c2O)C2CCCCC2)cc1 (stereo not drawn) gave a remaining activity of under 40% (CAAX prenyl protease 2 (Homo sapiens, UniProt Q9Y256); enzyme activity, inhibitor; 10 µM).
`CGGL`: “relative fluorescence increase” 0 (Protein farnesyltransferase; enzyme activity, substrate, fluorimetric; peptide; 3 µM, 30 min, with: 9 µM farnesyl diphosphate; baseline: dansyl-GCVLS (set to 1.0)).
CC1=CC[C@H](C(C)C)C=C1 gave a fluorescence intensity of 59.8 ± 1.14% (Chilo suppressalis CSP2; binding, competitive fluorescence displacement; 30 µM, pH 7.4).
For CN(Cc1cccc(CN(C)c2ccc(F)cc2)n1)c1ccc(F)cc1, “lowest effective concentration” read 1000 nM (CXCR4; binding, competition binding; MDA-MB-231; semi-quantitative screen, with: biotinylated TN14003).
CCOc1nc2cccc(C(=O)O)c2n1Cc1ccc(-c2ccccc2-c2nnn[nH]2)cc1 gave a taurocholate uptake of 68 ± 7.2% (SLC10A1; inhibitor; HEK293 expressing NTCP; 100 µM, 5 min, with: taurocholate 10 µM; baseline: no compound).
Oc1ccccc1Oc1ccccc1 has a Ki of 18.9 ± 1.05 nM (Enoyl-[acyl-carrier-protein] reductase [NADPH] FabI; enzyme activity, inhibitor, progress curve kinetics, item: NADPH).
`zilucoplan` has a C5a reduction of 65.7% (Complement C5 (Homo sapiens, UniProt P01031); human whole blood; 1 nM, 24 h, with: LPS 200 ng/mL; baseline: LPS alone).
CN(Cc1cccc(Cl)c1)Cc1cccc(CN(C)Cc2cccc(Cl)c2)n1: “lowest effective concentration” 10 nM (CXCR4; binding, competition binding; MDA-MB-231; semi-quantitative screen, with: biotinylated TN14003).
CCCCCCCC[N+](=O)[O-]: “substrate inhibition constant” 8.3 ± 3.7 mM (Nitroalkane oxidase (Fusarium oxysporum, UniProt Q8X1D8); oxygen consumption; pH 8.0, 30 °C).
CCCCCCO has a fluorescence intensity of 59.3 ± 2.24% (Chilo suppressalis CSP2; binding, competitive fluorescence displacement; 30 µM, pH 7.4).
Under “relative fluorescence increase”, `CAYL` is recorded as 0 (Protein farnesyltransferase; enzyme activity, substrate, fluorimetric; peptide; 3 µM, 30 min, with: 9 µM farnesyl diphosphate; baseline: dansyl-GCVLS (set to 1.0)).
CC(C)CC[C@@H](O)[C@](C)(O)[C@H]1CC[C@@]2(O)C3=CC(=O)[C@@H]4C[C@@H](O)[C@@H](O)C[C@]4(C)C3=CC[C@]12C: “covalent blocking efficiency” over 70% (Ecdysone receptor, with ultraspiracle (EcR, Drosophila melanogaster, UniProt P34021); photoaffinity ligand, [3H]ponasterone A binding; 100 nM, UV irradiation 350 nm, 20 min).
With O=S(=O)([O-])c1cc(Nc2nc(Cl)nc(Cl)n2)c2c(O)c(N=Nc3ccccc3)c(S(=O)(=O)[O-])cc2c1.[Na+].[Na+] the Hill coefficient was about 3 (ancestral DyP peroxidase wild type; peroxidase activity, substrate; pH 4.0, 25 °C, pH 4.5 for Mn2+).
Under “GDP dissociation rate increase”, C[N+](C)(C)CCOC(N)=O is recorded as 1.8 fold (Gs/olf proteins; [3H]GDP binding SPA; CHO cell membranes; 10 µM, with: [3H]GDP 500 nM; baseline: control).
CNC(=O)c1cc(Cl)cc(C)c1NC(=O)c1cc(Br)nn1-c1ncccc1Cl has an EC2X of 0.48 µM (ryanodine receptor (Daphnia magna, UniProt A0A164M377); [3H]ryanodine binding, activator; microsomes; 16 h, 25 °C, 200% of control binding).
`CSLL` — result for “relative fluorescence increase”: 0 (Protein farnesyltransferase; enzyme activity, substrate, fluorimetric; peptide; 3 µM, 30 min, with: 9 µM farnesyl diphosphate; baseline: dansyl-GCVLS (set to 1.0)).
With Nc1nc(NC2CC2)c2ncn([C@H]3C=C[C@@H](CO)C3)c2n1 the taurocholate uptake was 94.9 ± 4.4% (SLC10A1; inhibitor; HEK293 expressing NTCP; 100 µM, 5 min, with: taurocholate 10 µM; baseline: no compound).
For COc1cc2c(NC3CCN(CCCC(=O)NCCCCCCCCCCC(=O)N[C@H](C(=O)N4C[C@H](O)C[C@H]4C(=O)NCc4ccc(-c5scnc5C)cc4)C(C)(C)C)CC3)nc(N3CCC(F)(F)CC3)nc2cc1OCCCN1CCCC1, the degradation was 79 ± 16% (EHMT2 (Homo sapiens, UniProt Q96KQ7); degrader, western blot; 0.3 µM, 24 h; baseline: DMSO).
The taurocholate uptake of Cc1ccc(NC(=O)c2ccc(CN3CCN(C)CC3)cc2)cc1Nc1nccc(-c2cccnc2)n1 is reported as 90.7 ± 1.6% (SLC10A1; inhibitor; HEK293 expressing NTCP; 100 µM, 5 min, with: taurocholate 10 µM; baseline: no compound).
CCCCC(C(=O)COc1c(F)c(F)cc(F)c1F)n1cc(C2(N)CCN(C(C)=O)CC2)nn1 (stereo not drawn): “second-order inactivation rate constant” under 20 M⁻¹ s⁻¹ (DPAP1 (Plasmodium falciparum, UniProt Q8IIJ9); inhibitor; parasite lysate; with: (Pro-Arg)2-rhodamine substrate).
For N.N.N.N.Nc1nc(C#Cc2ccccc2)nc2c1ncn2[C@@H]1O[C@H](COP(=O)(O)OP(=O)(O)OP(=O)(O)O)[C@@H](O)[C@H]1O, the breakthrough time was 29.6 min (GPR17; frontal affinity chromatography-MS; immobilized on IAM column; 1 µM, compound mixture).
For Oc1cc(Cl)ccc1Oc1ccccc1, “dissociation rate constant” read 1.7 ± 0.3 h⁻¹ (Enoyl-[acyl-carrier-protein] reductase [NADPH] FabI; enzyme activity, inhibitor, progress curve kinetics).
CNCCCN1c2ccccc2CCc2ccccc21 — result for phenytoin uptake: “no effect” (Monocarboxylate transporter 8 (SLC16A2, Rattus norvegicus, UniProt Q8K1P8); inhibitor; Xenopus oocytes expressing rat MCT8; 1 mM, with: [14C]phenytoin 9.09 µM; baseline: water-injected oocytes).
With Nc1nc2c(ncn2[C@@H]2O[C@H](COP(=O)(O)OP(=O)(O)OP(=O)(O)O)[C@@H](O)[C@H]2O)c(=O)[nH]1 the Kd was 300 nM (T2, RNA aptamer minimized 10-24; ultrafiltration; apparent, with: GTP).
Under “relative fluorescence increase”, `CGQL` is recorded as 0 (Protein farnesyltransferase; enzyme activity, substrate, fluorimetric; peptide; 3 µM, 30 min, with: 9 µM farnesyl diphosphate; baseline: dansyl-GCVLS (set to 1.0)).
Under “IC50 fold change”, CC[C@H](C)[C@H](NC(=O)[C@H](CCC(N)=O)NC(=O)[C@H](CS)NC(=O)[C@@H](NC(=O)[C@H](Cc1c[nH]cn1)NC(=O)[C@H](CC(=O)O)NC(=O)[C@H](C)NC(=O)[C@H](CC(C)C)NC(=O)[C@@H](NC(=O)[C@@H](NC(=O)[C@H](CC(C)C)NC(=O)[C@H](CCCNC(=N)N)NC(=O)[C@H](Cc1c[nH]cn1)NC(=O)[C@@H](NC(=O)[C@H](CCCNC(=N)N)NC(=O)[C@@H]1CCCN1C(=O)[C@@H](NC(=O)[C@H](CCC(N)=O)NC(=O)CN)C(C)C)[C@@H](C)O)[C@@H](C)CC)[C@@H](C)O)[C@@H](C)CC)C(=O)N[C@@H](C)C(=O)N[C@H](C(=O)N[C@@H](CCC(N)=O)C(=O)N[C@@H](CC(=O)O)C(=O)N[C@@H](Cc1ccccc1)C(=O)N[C@@H](C)C(=O)N[C@@H](CCCNC(=N)N)C(=O)O)[C@@H](C)O is recorded as 88.2 (NR1D1 (Homo sapiens, UniProt P20393); NCoR peptide binding, competitor, TR-FRET; 1 h, with: labelled NCoR 2040-2065 peptide; baseline: mutant over wild-type peptide).
For CCC/C=C/COC(C)=O, “remaining 1-NPN fluorescence” read 83.1 ± 0.86% (chemosensory protein 1 (Chilo suppressalis, UniProt V9PY22); binding, competitive ligand, fluorescence competitive binding; highest concentration tested, pH 7.4, protein 2 µM, with: 1-NPN 2 µM; baseline: no ligand).
For CC(=O)N1CCN(c2ccc(OCC3COC(Cn4ccnc4)(c4ccc(Cl)cc4Cl)O3)cc2)CC1 (stereo not drawn), the taurocholate uptake was 59.1 ± 3% (SLC10A1; inhibitor; HEK293 expressing NTCP; 100 µM, 5 min, with: taurocholate 10 µM; baseline: no compound).

For quick reference, copied from above:
Oc1ccccc1Oc1ccccc1 has a Ki of 18.9 ± 1.05 nM (Enoyl-[acyl-carrier-protein] reductase [NADPH] FabI; enzyme activity, inhibitor, progress curve kinetics, item: NADPH).
`zilucoplan` has a C5a reduction of 65.7% (Complement C5 (Homo sapiens, UniProt P01031); human whole blood; 1 nM, 24 h, with: LPS 200 ng/mL; baseline: LPS alone).
Under “GDP dissociation rate increase”, C[N+](C)(C)CCOC(N)=O is recorded as 1.8 fold (Gs/olf proteins; [3H]GDP binding SPA; CHO cell membranes; 10 µM, with: [3H]GDP 500 nM; baseline: control).
With O=C(O)[C@H]1O[C@@H](O[C@H]2c3cc4ccc5cccc6c7ccccc7c(c3C=C[C@@H]2O)c4c56)[C@H](O)[C@@H](O)[C@@H]1O (relative stereo) the kcat was 0.48 ± 0.04 min⁻¹ (UGT1A9; glucuronidation, substrate; UGT-expressing HEK293 homogenate; normalized to UGT expression).
